Measurements collected from several papers.
Compare with care: the assays were run in different laboratories. Numbers after ± are the reported error.
MTNR1A: Melatonin receptor type 1A (MTNR1A, Homo sapiens, UniProt P48039)
UniProt P48039, sequence (whole entry, looked up): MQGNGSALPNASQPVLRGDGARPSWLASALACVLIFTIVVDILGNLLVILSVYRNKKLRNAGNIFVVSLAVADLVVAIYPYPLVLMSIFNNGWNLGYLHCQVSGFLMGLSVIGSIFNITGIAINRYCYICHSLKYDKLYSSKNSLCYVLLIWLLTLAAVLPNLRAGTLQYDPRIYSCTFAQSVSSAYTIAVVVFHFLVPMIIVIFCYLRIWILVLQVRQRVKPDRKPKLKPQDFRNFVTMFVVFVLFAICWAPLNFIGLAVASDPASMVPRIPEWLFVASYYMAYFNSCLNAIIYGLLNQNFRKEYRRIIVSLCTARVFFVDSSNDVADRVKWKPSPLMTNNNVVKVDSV
PTH1R: Parathyroid hormone/parathyroid hormone-related peptide receptor (PTH1R, Homo sapiens, UniProt Q03431)
UniProt Q03431, sequence (whole entry, looked up): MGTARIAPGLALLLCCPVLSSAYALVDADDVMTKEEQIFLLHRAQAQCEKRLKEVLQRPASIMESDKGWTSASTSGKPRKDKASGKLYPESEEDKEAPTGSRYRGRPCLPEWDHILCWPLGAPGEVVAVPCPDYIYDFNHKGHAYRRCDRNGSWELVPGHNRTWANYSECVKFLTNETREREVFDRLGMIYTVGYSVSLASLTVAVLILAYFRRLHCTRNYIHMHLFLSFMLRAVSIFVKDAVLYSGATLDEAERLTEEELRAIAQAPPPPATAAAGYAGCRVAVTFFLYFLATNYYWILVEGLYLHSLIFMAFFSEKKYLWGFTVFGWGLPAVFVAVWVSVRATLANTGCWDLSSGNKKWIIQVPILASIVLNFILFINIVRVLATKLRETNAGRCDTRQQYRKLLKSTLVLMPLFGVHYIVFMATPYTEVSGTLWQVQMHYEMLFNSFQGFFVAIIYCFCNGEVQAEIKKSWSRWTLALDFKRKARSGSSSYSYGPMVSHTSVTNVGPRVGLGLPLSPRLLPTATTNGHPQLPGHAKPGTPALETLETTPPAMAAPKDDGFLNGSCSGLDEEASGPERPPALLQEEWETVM
UniProt Q8TDS7, sequence (whole entry, looked up): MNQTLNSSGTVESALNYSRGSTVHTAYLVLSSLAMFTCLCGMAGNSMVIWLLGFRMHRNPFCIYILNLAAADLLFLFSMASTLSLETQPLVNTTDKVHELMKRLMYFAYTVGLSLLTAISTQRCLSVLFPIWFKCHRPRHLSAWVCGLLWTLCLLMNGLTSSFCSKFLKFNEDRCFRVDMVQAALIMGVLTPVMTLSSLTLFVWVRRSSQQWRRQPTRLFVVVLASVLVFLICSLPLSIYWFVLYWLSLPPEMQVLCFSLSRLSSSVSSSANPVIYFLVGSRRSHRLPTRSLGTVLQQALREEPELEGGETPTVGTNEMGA
UniProt P25103, sequence (whole entry, looked up): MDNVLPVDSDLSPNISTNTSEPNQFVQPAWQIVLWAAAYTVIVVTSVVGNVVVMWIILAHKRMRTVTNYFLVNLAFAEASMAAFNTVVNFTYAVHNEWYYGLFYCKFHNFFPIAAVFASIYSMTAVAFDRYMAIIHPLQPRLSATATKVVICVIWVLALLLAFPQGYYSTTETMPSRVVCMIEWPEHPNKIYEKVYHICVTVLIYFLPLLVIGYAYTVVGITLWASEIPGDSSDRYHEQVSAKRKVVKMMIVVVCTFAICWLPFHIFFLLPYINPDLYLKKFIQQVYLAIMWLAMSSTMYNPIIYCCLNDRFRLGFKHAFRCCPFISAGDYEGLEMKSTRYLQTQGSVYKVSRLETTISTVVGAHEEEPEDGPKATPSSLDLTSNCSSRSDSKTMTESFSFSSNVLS
UniProt Q9NSD7, sequence (whole entry, unmodified, looked up): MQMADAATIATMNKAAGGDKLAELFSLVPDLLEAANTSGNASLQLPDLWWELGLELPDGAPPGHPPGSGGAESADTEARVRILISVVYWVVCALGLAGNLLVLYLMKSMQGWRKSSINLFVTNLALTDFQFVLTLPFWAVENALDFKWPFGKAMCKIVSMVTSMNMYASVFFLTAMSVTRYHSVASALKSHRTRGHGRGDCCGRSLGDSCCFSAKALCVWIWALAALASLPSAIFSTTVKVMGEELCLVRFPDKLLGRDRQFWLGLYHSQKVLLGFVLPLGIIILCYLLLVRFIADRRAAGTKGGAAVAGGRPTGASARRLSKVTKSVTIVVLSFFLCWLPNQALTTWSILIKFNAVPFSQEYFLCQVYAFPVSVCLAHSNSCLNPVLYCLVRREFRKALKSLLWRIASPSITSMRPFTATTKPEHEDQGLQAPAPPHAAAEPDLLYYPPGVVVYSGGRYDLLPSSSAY
UniProt Q92847, sequence (whole entry, unmodified, looked up): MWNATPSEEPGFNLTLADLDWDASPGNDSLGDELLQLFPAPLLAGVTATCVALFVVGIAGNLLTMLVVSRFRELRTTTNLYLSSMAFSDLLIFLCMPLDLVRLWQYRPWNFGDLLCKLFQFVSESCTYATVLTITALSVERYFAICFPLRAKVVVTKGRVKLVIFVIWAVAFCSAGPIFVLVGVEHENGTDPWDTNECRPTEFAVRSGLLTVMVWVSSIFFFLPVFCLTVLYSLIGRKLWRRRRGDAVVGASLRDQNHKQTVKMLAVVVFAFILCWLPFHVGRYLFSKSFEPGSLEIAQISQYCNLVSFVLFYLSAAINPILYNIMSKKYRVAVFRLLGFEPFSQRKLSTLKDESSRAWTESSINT

`COc1ccc2[nH]c(I)c(CCNC(C)=O)c2c1` has an Emax of 90% (MTNR1A; cAMP, agonist, TR-FRET; CHO-K1; 20 min).
The Emax of `CCCCCCCCCCCCCCCC(=O)N[C@@H](CCC(=O)O)C(=O)NCCCC[C@H](NC(=O)[C@H](CCC(N)=O)NC(=O)[C@H](Cc1c[nH]cn1)NC(=O)[C@H](CCCC)NC(=O)[C@H](CC(C)C)NC(=O)[C@H](CCC(N)=O)NC(=O)[C@@H](NC(=O)[C@H](CCC(=O)O)NC(=O)C(C)(C)NC(=O)[C@@H](NC(=O)C1(N)CCCC1)C(C)C)[C@@H](C)CC)C(N)=O` is reported as 83.9 ± 2% (PTH1R; cAMP response, agonist, GloSensor cAMP; GP-2.3; ligand-on phase).
The Emax of `COc1ccc(C(=O)c2c(C(=O)NCCCN(C)C)oc3ccc(Cl)cc3c2=O)cc1OC` is reported as 93.1 ± 7.1% (GHSR (Homo sapiens, UniProt Q92847, E197A); Gαq dissociation, TRUPATH BRET; HEK293T).
`CCCCCCCCCCCCCCCC(=O)N[C@H](CCCNC(=N)N)C(=O)NCCCC[C@H](NC(=O)[C@H](CCCCNC(=N)N)NC(=O)[C@H](CCC(N)=O)NC(=O)[C@H](Cc1c[nH]cn1)NC(=O)[C@H](CCCC)NC(=O)[C@H](CC(C)C)NC(=O)[C@H](CCC(N)=O)NC(=O)[C@@H](NC(=O)[C@H](CCC(=O)O)NC(=O)C(C)(C)NC(=O)[C@@H](NC(=O)C1(N)CCCC1)C(C)C)[C@@H](C)CC)C(N)=O` gave an Emax of 139 ± 15% (PTH1R; cAMP response, agonist, GloSensor cAMP; GP-2.3; washout phase).
With `COc1cc(I)c(Cc2cc(OC)c(OC)cc2CC(=O)OC(C)(C)C)cc1OC` the Emax was 41% (MTNR1A; β-arrestin recruitment, agonist; CHO-K1; 90 min).
The Emax of `CSCC[C@H](NC(=O)[C@H](CC(C)C)NC(=O)CNC(=O)[C@H](Cc1ccccc1)NC(=O)[C@H](Cc1ccccc1)NC(=O)[C@@H](N)CCC(N)=O)C(N)=O` is reported as 80 ± 3% (Substance-P receptor, with miniGs/q (TACR1, Homo sapiens, UniProt P25103); miniGs/q recruitment, BRET; HEK293; 30 min; reference: 10 µM substance P).
With `COc1ccc(C2(C(=O)N3CCC(Nc4nc5ccccc5c(=O)[nH]4)CC3)CC2)cc1` the Emax was 101 ± 5.18% (MRGPRD (Homo sapiens, UniProt Q8TDS7); miniGq recruitment, agonist, BRET; HEK293T; wild type; reference: wild type).
`CCc1cc(O)cc2c(/C=N/NC(=N)NCCc3ccc(Cl)cc3)c[nH]c12` has an Emax of 69.2 ± 8.24% (RXFP3 (Homo sapiens, UniProt Q9NSD7, F371A); HEK-293T; reference: wild type).

Some of these lines once more:
`CCCCCCCCCCCCCCCC(=O)N[C@H](CCCNC(=N)N)C(=O)NCCCC[C@H](NC(=O)[C@H](CCCCNC(=N)N)NC(=O)[C@H](CCC(N)=O)NC(=O)[C@H](Cc1c[nH]cn1)NC(=O)[C@H](CCCC)NC(=O)[C@H](CC(C)C)NC(=O)[C@H](CCC(N)=O)NC(=O)[C@@H](NC(=O)[C@H](CCC(=O)O)NC(=O)C(C)(C)NC(=O)[C@@H](NC(=O)C1(N)CCCC1)C(C)C)[C@@H](C)CC)C(N)=O` gave an Emax of 139 ± 15% (PTH1R; cAMP response, agonist, GloSensor cAMP; GP-2.3; washout phase).
